Assay results from different studies.
A part holds a random share of what one study measured.

Study 1 — technique: universal PBM; molecule type: double-stranded DNA, one strand shown; matrix: in vitro; concentration: 600 nM; reading: higher = stronger binding; endpoint: E-score
Target: Sal-like protein 4, full length isoform A (SALL4, Homo sapiens, UniProt Q9UJQ4, residues 1-1053)
UniProt Q9UJQ4, sequence (whole entry, looked up): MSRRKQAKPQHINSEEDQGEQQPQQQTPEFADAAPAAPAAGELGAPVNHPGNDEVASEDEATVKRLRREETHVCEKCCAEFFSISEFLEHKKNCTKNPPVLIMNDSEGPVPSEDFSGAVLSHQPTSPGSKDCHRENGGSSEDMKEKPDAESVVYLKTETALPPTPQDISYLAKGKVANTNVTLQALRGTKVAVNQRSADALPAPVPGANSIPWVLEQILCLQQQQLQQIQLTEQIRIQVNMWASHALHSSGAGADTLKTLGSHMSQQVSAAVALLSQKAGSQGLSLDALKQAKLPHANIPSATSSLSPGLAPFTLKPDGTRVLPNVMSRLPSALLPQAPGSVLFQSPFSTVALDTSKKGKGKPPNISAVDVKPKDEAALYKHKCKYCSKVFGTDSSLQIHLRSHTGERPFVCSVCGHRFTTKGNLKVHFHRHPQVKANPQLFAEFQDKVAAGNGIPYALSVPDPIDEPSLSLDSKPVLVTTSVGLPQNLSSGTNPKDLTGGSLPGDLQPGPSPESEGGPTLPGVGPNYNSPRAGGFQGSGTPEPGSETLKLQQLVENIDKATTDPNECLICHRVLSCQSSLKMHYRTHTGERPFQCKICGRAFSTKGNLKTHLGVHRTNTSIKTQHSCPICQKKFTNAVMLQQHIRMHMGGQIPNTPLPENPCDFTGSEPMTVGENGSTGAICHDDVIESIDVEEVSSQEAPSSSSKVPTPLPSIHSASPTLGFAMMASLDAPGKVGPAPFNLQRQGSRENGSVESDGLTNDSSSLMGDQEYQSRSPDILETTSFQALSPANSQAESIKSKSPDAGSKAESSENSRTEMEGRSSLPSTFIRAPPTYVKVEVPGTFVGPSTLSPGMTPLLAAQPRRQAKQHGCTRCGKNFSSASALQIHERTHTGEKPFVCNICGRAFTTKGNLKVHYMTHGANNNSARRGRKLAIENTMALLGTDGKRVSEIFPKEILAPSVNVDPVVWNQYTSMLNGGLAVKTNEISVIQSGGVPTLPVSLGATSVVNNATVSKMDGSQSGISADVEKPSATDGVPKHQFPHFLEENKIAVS
Setting: 8-mer, flanks averaged, mean of replicates
ACCTATCG: 0.0449
AAGACGAG: -0.205
CATAGGTA: 0.0628
CGGGCTGA: -0.338
TTGCACAA: 0.163
ACGCTCCA: -0.0899
AAGGGGTG: -0.163
GGGGTCCA: -0.352
CGACCCTC: -0.216
CGAAGGGA: -0.216
GGCCTTTA: -0.0943
TACAGCGA: -0.0447
CTTTGACC: 0.072
ACTCTCAA: 0.137
AGGGGACT: -0.245
TAGTCTGA: 0.0153
CACAGAGG: -0.14
CACACGAG: -0.257
TCGGGTCA: -0.129
CAATCGGC: -0.115
GAATGAGC: 0.124
CCTTTTCC: -0.0743
ATCGCGAC: -0.0795
AACTCCGC: -0.254
AGATAGAT: 0.0976

Study 2 — technique: RNA Bind-n-Seq; molecule type: RNA; matrix: in vitro; concentration: 200 nM; setting: whole 134-nt RNA, ends assumed; with: 150 mM KCl; reference: input library; reading: higher = stronger binding; endpoint: log2 enrichment
Target: Fragile X messenger ribonucleoprotein 1, C-terminal low-complexity region (Fmr1, Mus musculus, UniProt P35922)
All sequences stand within: GGGAGUUCUACAGUCCGACGAUC … UGGAAUUCUCGGGUGUCAAGG
CUGUGCUACACAUCGUAUGUACCGAAUCGGGGUUUGGGGUUUUUUUGGGGUUUUUUUGGGGAAAGUAUUAUGUUACGCCGUUCGGAUCUG: 0.0991
UGGCCCUGGUGGCAUGCGGGGAGGAAGAGGUGGCCUCAUGGAUCGUGGUGGUCCCGGUGGAAUGAUCAGAGGUGGCCGUGGUGGAGACAG: -0.059
CAAGUCCUGUGCUACACAUCGUAUGUACCGAAUCGGGGAGGGGUGGGGAAAGGGGAAAGUAUUAUGUUACGCCGUUCGGAUCUGCACUUC: 1.32
AGUCCUGUGCUACACAUCGUAUGUACCGAAUCGGCCCCCGGCCCCCGGGCCCCCGGGAAAGUAUUAUGUUACGCCGUUCGGAUCUGCACU: -0.367
UGGCCCUGUUGGCAUGCGGGGAGGAAGAGGUGGCCUCAUGGAUCGUGGUGGUCCCGGUGGAAUGUUCAGAGGUGGCCGUGGUGGAGACAG: -0.0981
CCUCAAGUCCUGUGCUACACAUCGUAUGUACCGAAUCGGUUGGUUGGGUUGGAAAGUAUUAUGUUACGCCGUUCGGAUCUGCACUUCCAG: -0.00829
UGGCCCUGGUGGCAUGCGGGGAGGAAGAGGUGGCCUCAUGGAUCGUGGUGGUCCCGGUGGAAUGUUCAGAGGUGGCCGUGGUGGAGACAA: 0.0348
GUCCUGUGCUACACAUCGUAUGUACCGAAUCGGAAAAAAAGGAAAAAAAGGUUUUUGGAAAGUAUUAUGUUACGCCGUUCGGAUCUGCAC: -1.03
CACAGACAACACGCACCCACACAGACACAGAGGGAAGGGGUUGGGAUGGGGACAGGGUGCACAGCCGGGCGGGGUAGGACCCCAGCCCCU: 1.28
CUCAAGUCCUGUGCUACACAUCGUAUGUACCGAAUCGGGGUUGGUUGGGUUGGGAAAGUAUUAUGUUACGCCGUUCGGAUCUGCACUUCC: 0.866
UCAAGUCCUGUGCUACACAUCGUAUGUACCGAAUCGGGCCGGGGCCGGCCGGGGAAAGUAUUAUGUUACGCCGUUCGGAUCUGCACUUCC: -0.171
AAGUCCUGUGCUACACAUCGUAUGUACCGAAUCGGGAAAAAGGGAGGGUUUUUGGGAAAGUAUUAUGUUACGCCGUUCGGAUCUGCACUU: 0.692
UAACUUUAGAGGAGGAUCUGAUGGAUAUGGCAGUGGACGUGGAUUUGGGGAUGGCUAUAAUGGGUAUGGAGGAGGACCUGGAGGUGGCAC: 0.121
ACCAAACAGGUGGGCAUCUUUGGGAAGUGGGGCAAGGGGGGGAUAGGGAGGGGGGUAACACUUUGGGAACAGGUGGUCCCAGGUCGUUUC: 1.12

Study 3 — technique: protein binding microarray; molecule type: double-stranded DNA, one strand shown; matrix: in vitro; concentration: not given; reference: not given; reading: higher = stronger binding; endpoint: E-score
Target: Histone acetyltransferase KAT6A, both winged helices, GST fusion (KAT6A, Homo sapiens, UniProt Q92794, residues 1-181)
Setting: 8-mer, flanks averaged, mean of 2 arrays, mostly near background
Target sequence (chain): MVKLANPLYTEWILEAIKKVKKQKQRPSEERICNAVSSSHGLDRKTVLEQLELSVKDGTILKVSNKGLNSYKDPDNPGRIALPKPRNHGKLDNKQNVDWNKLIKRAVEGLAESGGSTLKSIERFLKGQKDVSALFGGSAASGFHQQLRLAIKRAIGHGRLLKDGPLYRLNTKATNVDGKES
CGCCCACG: 0.142
AATGATCT: -0.102
GGCGGCCC: 0.174
ACCGCTGA: 0.144
CCTTAACA: -0.0193
AATGTAAC: -0.0824
ATAATCAT: -0.0381
AACCTGCA: -0.189
GTGGTGTA: -0.129
GGATAACC: 0.0807
CTTGCATA: -0.23
ACAAGGTA: -0.0934
TTTCAAAA: -0.106
AGGTCCTA: -0.158
ATGATCTC: -0.141
CATTGAAC: -0.0196
AGACTGAT: -0.113
ATCGCCTG: -0.11
AATGCTCC: -0.12
CAAATGAA: -0.122
CAGTCATG: -0.0399
GACAGACC: -0.123
CCAGTAGC: 0.0721
TGCCCCAA: -0.241
AAACCGCT: 0.216

Study 4 — technique: protein-binding microarray; molecule type: double-stranded DNA, one strand shown; matrix: in vitro; concentration: 940 nM top; setting: 60-bp whole probe; with: salmon DNA 0.4 mg/ml; reference: random background probes; reading: higher = stronger binding; endpoint: fitted relative affinity; all sequences stand within: GCCTAGCAC … GTCTTGATTCGCTTGACGCTGCTG
Target: Interferon regulatory factor 5, full length, phosphomimetic (IRF5, Homo sapiens, UniProt Q13568-2, residues 1-514, S451D/S453D/S456D/S462D)
GACGGTATCGGTCTCCGGACGTGCTAG: 9.48 z-score
GACGGCTTCGGTTCCGGGACGTGCTAG: -0.106 z-score
TTAGGACTGGACTATGGGTTAGTGCTA: -0.417 z-score
GACGGACTTGGTATCGGGACGTGCTAG: 2.6 z-score
TTAGGTTCCGGATTCGGTTAGTGCTAG: 1.51 z-score
TTAGAACTGAGTATGGATTAGTGCTAG: -0.101 z-score
GTGTTTGTCCCTATTTAAGAGTGCTAG: 1.16 z-score
TTAGGTTTTGGACTGGGTTAGTGCTAG: 0.841 z-score
TTGGATTTCAGTTCCGATTAGTGCTAG: 1.58 z-score
CCAGGGACAAAGCGGTGCGAGTGCTAG: -0.749 z-score
GTTCTTTTCTGTTGTCTGTGTGTGCTA: 1.88 z-score
TTAGGTATCCTTCTCCCTTAGTGCTAG: 0.903 z-score
AGGTTCTACTCCGTTAGTTGGTGCTAG: 0.174 z-score
GACGGTCTCCTTTTCCTAACGTGCTAG: 0.544 z-score
GACGGAGTGCTTCTCCTGACGTGCTAG: -0.577 z-score
GAGGGTTTCCTTTTCCTGACGTGCTAG: 1.48 z-score
TTAGAACTGAGACTGGATTTGTGCTAG: 0.126 z-score
TTAGGTATCCACTTTCGGTTAGTGCTA: 3.99 z-score
GACGGTTTGCTTTTCCTGACGTGCTAG: 0.368 z-score
TTAGTTATCGGGACTGGATTAGTGCTA: 0.353 z-score
CTAGTTAAGGTACACCAGCAGTGCTAG: -0.308 z-score
GACGGTAGCCTTATCCTGACGTGCTAG: -0.357 z-score
TACCTTTTCACTTTACACACGTGCTAG: 1.78 z-score
GACGGTATCGGTATCGAGACGTGCTAG: 8.45 z-score
CTAGGTATCGGGTTTCGGTTAGTGCTA: 7.8 z-score

Study 5 — technique: RNA Bind-n-Seq; molecule type: RNA; matrix: in vitro; concentration: not given; setting: RNA with constant flanks, ends assumed; reference: input RNA pool; reading: higher = stronger binding; endpoint: bound/input enrichment
Target: RING finger protein unkempt homolog, zinc fingers 1-6, GST-SBP tag (UNK, Homo sapiens, UniProt Q9C0B0, residues 30-357)
UniProt Q9C0B0, sequence (30-357, looked up): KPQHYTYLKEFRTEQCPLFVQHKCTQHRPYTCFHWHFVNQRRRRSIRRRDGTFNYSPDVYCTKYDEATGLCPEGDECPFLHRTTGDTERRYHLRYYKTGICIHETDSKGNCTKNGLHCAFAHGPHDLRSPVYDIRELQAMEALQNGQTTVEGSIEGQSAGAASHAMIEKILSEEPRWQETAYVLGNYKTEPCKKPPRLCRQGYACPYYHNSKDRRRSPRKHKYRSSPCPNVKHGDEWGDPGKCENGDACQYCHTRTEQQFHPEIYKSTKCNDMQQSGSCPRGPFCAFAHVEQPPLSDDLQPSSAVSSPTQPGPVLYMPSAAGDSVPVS
All sequences stand within: GGGAGUUCUACAGUCCGACGAUC … CAACAGAGGAUUGAGCAUCA
AUGCUUGGUUGUAAGACACCAAUAGGAAAACCAGCCACUGCAAAACUUUAAUAAUCAACAAACCGUUAUGGAAAAUUCGGUCACGUAAUUACUCUCAUCGAAGGACUCAUUACAACAAAC: 1.3 ratio
UGCUAACACUAGACAAAAAUCAACUGUAUUUGUAAAAAUUUACCUCAAACCAUUUAAUUUUACCGUGUGAUUAAUCCCAGGGCAUUUGGUAUGAACCAAAGUGCAUUCCUUUUAUAUGUG: 1.29 ratio
AUAGAUGCCCUCGCUUCCUCCCUGUUUCCCGAUUCCUUCUGCCCCCACCCCCAGAUCUCCCCGCCGGUCACCCAGACCCGUCUGCACCCCACUUGCGAAUCUGCAGCCACAAAUCCUCUG: 0.321 ratio
UAUGUGGAGACAGAACUGAUAUUCGCACUGGCUAAAACAAACCGCCUUGCAGAGUCCGAAGAAUUUAUCAAUGGACCAAAUAAUGCUCAUAUCCAACAAGUUGGUGACCGUUGUUAUGAU: 0.428 ratio
UGCGCCUUUUCUUCCUCUCUUUUUUUUCCCCCUUUCUUUCCCACCCCACCCCCUCCCAAUAACCGAUUUACUUUACAAUCAUCCACACUGUGGUCUGUGGAUCUUUAAUAUAUAUAUAUA: 1.32 ratio
GAAGACACAGAAGCAAAGAACCCAUUUUCUACUCAGGACACAGAUUUAGACUUGGAGAUGUCCGCUCCCUAUAUCCCAAUGGAUGAUGACUUCCAGUUACGUUCCUUCGAUCAGUUGUCA: 0.353 ratio
GAUGUGUGUGUGAUGGUUAUUUUGUUUUGUUUUGUUUUGUUUUGUGACAGGGUCUCUCUCCACCGACAUAGUCCUGGCUAUUCUAGAGCUCACUGUGUAGACCAGGCUGGCCUUGAACAG: 1.07 ratio
GAAUGGAAGAAUAUGGGUUAAGGCAAAAACCAUCCAGCAGACUUUAAUUUUGGCAAACAUUUCCGAAGCUUGUGAACACAUGACGUCAGAUCAAAGAAAACAGAUCUUCUCCAGAUUGGC: 0.252 ratio
AUAACUUCUAAGGAUAAUUUAGAAGAUGAGACUGAAGAUGAUGACCUAUUUGAAACUGAGUUCCGACAAUAUAAAAGAACAUAUUACAUGACGAAGAUGGGGGUUGACGUAGUAUCUGAU: 0.477 ratio
AAGAUAACUUCAAGGCAGGAAAAAAGGGUAUUUAAUGCUCUGUCAAGCACAUCAGCAAUCACCGAUUACCUUACAGACCAUUAUGGCAUUUGACUAGACUUCCCAAAUAAUUUUAAUAUA: 0.57 ratio
ACAGAAAAUAGCAGUGCAGUGCUACUCCAGUGGCAUGAAAAGGCCUUAGCUGUAGGAGGACCCGGCUCCAUUAUAAGAGUUCUUACAGCAAGAAAGACUGUUUAAAAAAAAAUCCUGUUA: 0.104 ratio

Study 6 — technique: RNA Bind-n-Seq; molecule type: RNA; matrix: in vitro; concentration: 20 nM; setting: 6-mer, flanks averaged, single round; with: 150 mM LiCl; reference: input library; reading: higher = stronger binding; endpoint: 6-mer enrichment (R)
Target: TAR DNA-binding protein 43, full length, His tag (TARDBP, Homo sapiens, UniProt Q13148, residues 1-414)
UAACGG: 0.873
GCAAGG: 1.02
UCAGGC: 0.864
CGGGAC: 0.974
UCGGAA: 0.912
CUGAUU: 0.869
GCGCAC: 0.965
UUAUCA: 0.918
CAGGCG: 0.967
GCAGGA: 0.975
UCACGA: 0.786
AACAUA: 0.861
GUAUUA: 0.997
ACCCGC: 0.966
GGUUCU: 0.93
CCCCAA: 1.12
UGGGCA: 1.05
GCGCCC: 1.07
GCGAGC: 0.977
ACGGUA: 0.891
UUCAAA: 0.869
CGCAUA: 0.886
CGACGU: 0.883
UCAGUG: 1.02
GCACCA: 0.984

Excerpt of the above (study 1):
CTTTGACC: 0.072
ACTCTCAA: 0.137
AGGGGACT: -0.245
TAGTCTGA: 0.0153
CACAGAGG: -0.14
CACACGAG: -0.257
TCGGGTCA: -0.129
CAATCGGC: -0.115
GAATGAGC: 0.124
